Experimental data gathered from unrelated publications.
Every numbered part comes from another study and shows a few of its results, in no order. Positions count from the first letter of the parent shown.

Set 1
Target: CCND2, cyclin fold, Cln2 fusion (human)
Technique: yeast growth competition, sequencing
Matrix: yeast
Notes: weak parent motif
Reference: not given
Direction: higher = stronger binding
Parent: CDC25A docking peptide (human); PPHRRRLLFACSP; partner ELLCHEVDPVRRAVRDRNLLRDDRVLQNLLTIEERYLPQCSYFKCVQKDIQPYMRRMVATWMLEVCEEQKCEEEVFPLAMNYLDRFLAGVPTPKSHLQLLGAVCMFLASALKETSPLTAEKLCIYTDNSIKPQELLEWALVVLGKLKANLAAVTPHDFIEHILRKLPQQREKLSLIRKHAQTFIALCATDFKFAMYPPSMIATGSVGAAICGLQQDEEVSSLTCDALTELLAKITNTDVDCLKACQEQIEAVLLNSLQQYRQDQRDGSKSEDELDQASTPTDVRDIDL
For `P2D`, “normalised enrichment score” read 0.11.
`S12Q` — result for “normalised enrichment score”: -0.129.
`S12C`: “normalised enrichment score” -0.109.
`L8R` — result for “normalised enrichment score”: 0.252.
`R5I` — result for “normalised enrichment score”: 0.166.
Under “normalised enrichment score”, `F9I` is recorded as 0.101.
Under “normalised enrichment score”, `C11F` is recorded as -0.163.
`P1G`: “normalised enrichment score” -0.0572.
For `H3T`, “normalised enrichment score” read 0.314.
Under “normalised enrichment score”, `S12M` is recorded as 0.325.
Under “normalised enrichment score”, `H3A` is recorded as 0.0194.
`C11G` — result for “normalised enrichment score”: -0.0264.
`C11Y`: “normalised enrichment score” -0.00474.
`L8G` — result for “normalised enrichment score”: 0.152.
`P2R`: “normalised enrichment score” 0.122.
`P13V`: “normalised enrichment score” 0.168.
`R6D` — result for “normalised enrichment score”: 0.0764.
For `L8H`, “normalised enrichment score” read -0.147.
`P2M`: “normalised enrichment score” 0.365.
Under “normalised enrichment score”, `P13D` is recorded as 0.638.
For `S12V`, “normalised enrichment score” read 0.174.
`R4C` — result for “normalised enrichment score”: 0.363.
`S12A` — result for “normalised enrichment score”: 0.129.
`F9W`: “normalised enrichment score” 0.418.
Under “normalised enrichment score”, `P13W` is recorded as -0.38.

Set 2
Target: OGT, full length, His-tagged (human)
Technique: phage display, sequencing
Matrix: in vitro
Concentration: 1 µg OGT
Notes: single substitutions, 15-mer displayed peptide, unchanged parent 16.7
Reference: input library
Direction: higher = stronger binding
Parent: peptide; NSEYMPQYQIIFAHQ
`NSEYMWQYQIIFAHQ [P6W]` gave a fold enrichment of 2.89 fold.
The fold enrichment of `NSEYMPQYQIIFDHQ [A13D]` is reported as 17.4 fold.
`NSTYMPQYQIIFAHQ [E3T]` gave a fold enrichment of 17 fold.
`NSEYVPQYQIIFAHQ [M5V]` has a fold enrichment of 4.87 fold.
The fold enrichment of `NSEKMPQYQIIFAHQ [Y4K]` is reported as 1.07 fold.
The fold enrichment of `NKEYMPQYQIIFAHQ [S2K]` is reported as 14.2 fold.
For `NSEYMPQYQIIFASQ [H14S]`, the fold enrichment was 15 fold.
`NSEYMPQYQIIFAHI [Q15I]` has a fold enrichment of 9.06 fold.
With `NSEYMPQYDIIFAHQ [Q9D]` the fold enrichment was 1.03 fold.
The fold enrichment of `NSEAMPQYQIIFAHQ [Y4A]` is reported as 0.764 fold.
The fold enrichment of `NSEYMPQYVIIFAHQ [Q9V]` is reported as 2.02 fold.
For `NSEYMPQYQIIFIHQ [A13I]`, the fold enrichment was 11.5 fold.
The fold enrichment of `NSEYMNQYQIIFAHQ [P6N]` is reported as 1.36 fold.
`QSEYMPQYQIIFAHQ [N1Q]` gave a fold enrichment of 16.3 fold.
`NSEYDPQYQIIFAHQ [M5D]` gave a fold enrichment of 2.79 fold.
For `NSEYMPQYQIRFAHQ [I11R]`, the fold enrichment was 9.21 fold.
With `NSEYMPQVQIIFAHQ [Y8V]` the fold enrichment was 3.24 fold.

Set 3
Target: Histone acetyltransferase KAT6A, winged helix 1, GST fusion (KAT6A, Homo sapiens, UniProt Q92794, residues 1-85)
Technique: protein binding microarray
Molecule type: double-stranded DNA, one strand shown
Matrix: in vitro
Concentration: not given
Notes: 8-mer, flanks averaged, mean of 2 arrays, mostly near background
Reference: not given
Direction: higher = stronger binding
Residues (chain): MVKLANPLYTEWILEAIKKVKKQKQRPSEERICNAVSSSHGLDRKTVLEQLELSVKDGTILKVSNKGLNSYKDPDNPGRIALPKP
For `ATGAATCG`, the E-score was 0.0335.
For `AGAATATG`, the E-score was -0.249.
The E-score of `GGGAAGAC` is reported as 0.197.
The E-score of `AAGCCGCT` is reported as 0.332.
`AATTCTAC` has an E-score of -0.198.
The E-score of `CCGAGTTA` is reported as 0.00777.
The E-score of `CTTTCCTA` is reported as -0.0157.
`ATCGGGCG` gave an E-score of 0.306.
With `CTTTATCA` the E-score was -0.268.
With `ATTTTAGA` the E-score was -0.104.
`AGGCCAGG` gave an E-score of 0.0234.
For `ATACAGTG`, the E-score was -0.211.
For `CCGTCCTA`, the E-score was 0.19.
`ATTTAGAA` gave an E-score of -0.0917.
`GTAGATTA` gave an E-score of 0.0909.
The E-score of `AGACCCGC` is reported as 0.326.
`GCCCTTTA` gave an E-score of 0.0515.
`ATGCGTTA` has an E-score of 0.103.
`GCGGTGCC` has an E-score of 0.332.
`TCTGCTAA` has an E-score of -0.201.

Set 4
Target: RING finger protein unkempt homolog, zinc fingers 1-6, GST-SBP tag (UNK, Homo sapiens, UniProt Q9C0B0, residues 30-357)
Sequence of UniProt Q9C0B0 (30-357, looked up): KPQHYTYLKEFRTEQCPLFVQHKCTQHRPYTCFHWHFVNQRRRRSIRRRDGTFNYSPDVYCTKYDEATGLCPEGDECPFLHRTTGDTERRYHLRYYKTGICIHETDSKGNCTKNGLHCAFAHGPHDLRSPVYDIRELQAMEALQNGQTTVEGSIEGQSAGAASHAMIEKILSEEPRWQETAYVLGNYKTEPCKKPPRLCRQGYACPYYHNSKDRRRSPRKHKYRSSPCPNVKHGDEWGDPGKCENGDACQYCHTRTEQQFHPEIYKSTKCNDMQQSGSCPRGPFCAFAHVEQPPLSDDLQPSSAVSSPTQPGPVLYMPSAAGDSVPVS
Technique: RNA Bind-n-Seq
Molecule type: RNA
Matrix: in vitro
Concentration: not given
Notes: RNA with constant flanks, ends assumed
Reference: input RNA pool
Direction: higher = stronger binding
Shared flanks, not repeated: GGGAGUUCUACAGUCCGACGAUC … CAACAGAGGAUUGAGCAUCA
With `AGUGCCUAUGAUUAUACAAUAUCACCCAUGGAGAAAGCCAUCGUGAAGACAGACAUUCAGACCGCUGUCCCUUCUGGGUGCUAUGGAAGAGUAGCUCCACGUUCUGGCUUGGCUGUAAAG` the bound/input enrichment was 0.123 ratio.
`AUAAUGAAUAUUAAAUGAUUUUUCUUCAGUCACAGUGAGAGCAUCUUGCUUUGUGGUUGAAACCGGCCGUGUAUGUCAGUCUUUGCUUUAGGCUGUUUCUCAUCUAAGUGUUUGAAUUAA` gave a bound/input enrichment of 0.327 ratio.
`AAGAGCAGAGGAAAUAACUUUACUGCAAAUCAGAACAAUGAUGAUAAUAUUCCAAACACCACCCGUGACUGCAGGCUGGAGAGUGAGGCCCCCUAUUUGUUGAGUCCAGAGGCUGGGCCU` gave a bound/input enrichment of 0.208 ratio.
`UUAGGGUGCUCUUUGAGAGCAUAGUCUUAUAUCUGGGGACUAAAAUGUCAUUAGACCCUAACCGACCAAGUUAUAUGUUUGUGUAGGAAAAAGGUUUCCUCUCUCGUUCAAGGUAAUUGU` gave a bound/input enrichment of 0.19 ratio.
`UCGUAUAUCAGAUAUCUGGGACCCAAAGUCCCAACCUUUACAAACCUGGGUCUCUGUUUUACCGAAUUUAAAAUACCUGGGAUUCAGGACCCUGUGUGCACCAAUAUCCGGGGUUCAUCC` has a bound/input enrichment of 0.132 ratio.
`GCUGCUUUCCACAGUUUGGUGGGGCUGGCAGCAGUUCUUACCUGCAUGGCCGAGUACAUCGCCGAGUAUCCACAUUUUGCAAUGGAUGCCACGUCAAAUUUCACCAAGAUUGUGGCUUAC` gave a bound/input enrichment of 0.142 ratio.
For `CAGCAGCCACAGCCACUGAUGUCACAACAGUUUGCACAGCCUCCGGGAGCUACCAAUAUGACCGGUUACAUGGGGCAGACUGCCUACCAAUACCCUCCUCCUCCUCCCCCUCCUCCUCCU`, the bound/input enrichment was 0.309 ratio.
The bound/input enrichment of `UCUAGAGCUCCCCCAAGACUGACUGUAGUGUCCCCUAACCGAGCUACUUCAACGGAAACCCGCUCAUCUGUAGAGACUGAUUUGCAACCCUUCCGGGAAGCCAUAGCUCUGCAUGGUCUU` is reported as 0.905 ratio.
`GCCUCCCUGGGUCUAGAGAAGUUGGUAAGCCCUCCAGCCUCAGCCGCUGCUUCCAGCCCCCGCUCUUCUCCAUCUCCACAGCCCGUUUCAGAGCUUGACUUGUCCUCAGAGCCACAGCAG` gave a bound/input enrichment of 0.334 ratio.
`UCAUUGUACUGCAAAAAUCAUCCUCGUUUUAAAUUAGCCACAGUGAUAACUAGUCUGCACCCGCCGAAUCAUUUACCUUUUAAAUUAUCUGCUUUGUCUGAUACCUGAAACACAUCAAAA` has a bound/input enrichment of 4.04 ratio.
The bound/input enrichment of `UGGCAAGGGUUGUGCAAAUCCACUUGGGGUCACUGUUCCAUAUACAAUAAGAACCCACCUUCCGGAUUUUCUUUUAGAAAAUUGUAUAUGCAGCUGGAUGAAGGCAGCCUCACCUUUAAU` is reported as 0.414 ratio.

Set 5
Target: ABI1, truncated, D143A, DHFR fusion (Arabidopsis thaliana)
Technique: DHFR PCA, deep sequencing
Matrix: yeast
Notes: methotrexate growth selection, single substitutions
Together with: (+)-ABA 200 µM
Reference: wild-type fitted maximum
Direction: higher = stronger binding
Parent: PYL1, truncated, DHFR fusion (Arabidopsis thaliana); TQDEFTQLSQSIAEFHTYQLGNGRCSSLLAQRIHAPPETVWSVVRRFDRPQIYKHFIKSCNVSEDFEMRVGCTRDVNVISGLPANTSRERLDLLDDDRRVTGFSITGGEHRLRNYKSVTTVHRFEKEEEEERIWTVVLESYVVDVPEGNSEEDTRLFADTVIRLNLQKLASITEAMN
For `E89L`, “relative binding score” read -5.7%.
`V62Q` — result for “relative binding score”: 48.4%.
`E129K` — result for “relative binding score”: 113%.
`R163L` — result for “relative binding score”: 57.9%.
For `S26L`, “relative binding score” read 43.3%.
`S80G`: “relative binding score” 53.9%.
Under “relative binding score”, `W134M` is recorded as 107%.
For `F5R`, “relative binding score” read 96.8%.
Under “relative binding score”, `L138R` is recorded as 16.4%.
`L164R` — result for “relative binding score”: 101%.
Under “relative binding score”, `Q31E` is recorded as 82.4%.
`R90G`: “relative binding score” 15.5%.
`D159W`: “relative binding score” 1.94%.
`T120C` — result for “relative binding score”: 19.5%.
`K58G`: “relative binding score” 86.3%.
`R163Q`: “relative binding score” 95%.

Set 6
Target: CREB3, bZIP domain (human)
Technique: DHFR protein complementation
Matrix: yeast
Notes: single substitutions, most at no-binding floor
Reference: wild-type JUN-FOS pair
Direction: higher = stronger binding
Parent: JUN, bZIP domain (human); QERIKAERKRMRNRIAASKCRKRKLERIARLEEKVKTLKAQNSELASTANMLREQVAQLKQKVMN; partner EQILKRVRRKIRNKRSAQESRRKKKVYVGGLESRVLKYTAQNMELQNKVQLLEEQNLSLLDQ
The binding fitness of `T48P` is reported as -1.53 natural log.
`L59T` has a binding fitness of -1.58 natural log.
For `R53N`, the binding fitness was -1.53 natural log.
The binding fitness of `M51H` is reported as -1.26 natural log.
`T48L` gave a binding fitness of -1.39 natural log.
For `L38G`, the binding fitness was -1.51 natural log.
For `I28Y`, the binding fitness was -1.45 natural log.
The binding fitness of `M51E` is reported as -1.4 natural log.
With `Q55M` the binding fitness was -1.45 natural log.
With `I28S` the binding fitness was -1.52 natural log.
With `A46D` the binding fitness was -1.51 natural log.
For `S43I`, the binding fitness was -1.26 natural log.
With `A49N` the binding fitness was -1.5 natural log.
`L45D` has a binding fitness of -1.46 natural log.

Excerpt of the above (set 1):
For `H3T`, “normalised enrichment score” read 0.314.
`C11Y`: “normalised enrichment score” -0.00474.
Under “normalised enrichment score”, `P13D` is recorded as 0.638.
`S12A` — result for “normalised enrichment score”: 0.129.
`R5I` — result for “normalised enrichment score”: 0.166.
`L8G` — result for “normalised enrichment score”: 0.152.
`P2R`: “normalised enrichment score” 0.122.
For `L8H`, “normalised enrichment score” read -0.147.
Under “normalised enrichment score”, `S12M` is recorded as 0.325.
